Measured values from different studies.
Protocols differ between the studies behind these lines.
Organism: Staphylococcus aureus

SMILES	test	system	conditions	MIC
CN(C)c1cc(CNC(=O)OCC(C)(C)C)c(O)c2c1C[C@H]1C[C@H]3[C@H](N(C)C)C(O)=C(C(N)=O)C(=O)[C@@]3(O)C(O)=C1C2=O	microbial growth, broth dilution			2 µg/mL
CC(C)C[C@H](NC(=O)[C@H](CC(N)=O)NC(=O)[C@H](CCCNC(=N)N)NC(=O)[C@@H](CC(C)C)NC(=O)[C@H](Cc1ccc(-c2ccccc2)cc1)NC(=O)[C@H](CC(=O)O)NC(=O)[C@H](CCCCN)NC(=O)[C@@H](CC(C)C)NC(=O)[C@H](CCCNC(=N)N)NC(=O)[C@H](CCC(N)=O)NC(=O)[C@@H](NC(=O)[C@@H](CC(C)C)NC(=O)[C@H](CCCNC(=N)N)NC(=O)[C@H](CCCCN)NC(=O)[C@H](Cc1ccc(-c2ccccc2)cc1)NC(=O)CN)C(C)C)C(=O)N[C@H](C(N)=O)C(C)C		USA300 LAC	overnight, chymotrypsin pretreated	4 µM
CCN(CC)CCCN1/C(=C/c2cc[n+](C)c3ccccc23)Sc2ccccc21	microbial growth, broth dilution	MRSA		16 µg/mL
CN(C)c1cc(CNC2CCCCC2)c(O)c2c1C[C@H]1C[C@H]3[C@H](N(C)C)C(O)=C(C(N)=O)C(=O)[C@@]3(O)C(O)=C1C2=O		MRSA 5, Tet M ribosome protection		1 µg/mL
C=CCOC(=O)[C@]12CS[C@H](c3ccccc3)N1C(=O)/C(=C(\O)C1CCCCC1)C2=O	broth dilution	MRSA	together with: Fe3+, Ca2+, Mg2+, Zn2+ at blood levels	7.81 µg/mL
Oc1c(Br)cc(Br)c2nc3cc(C(F)(F)F)ccc3nc12	broth microdilution	MRSA 44		0.05 µM
CSC1COC(=O)N1/N=C/c1ccc([N+](=O)[O-])o1 (stereo not shown)	microbial growth, broth dilution	ATCC29213	18 h	25 µg/mL
CCCCOCCOCc1nc2ccccc2c(=O)n1N	broth microdilution	RN6390B		> 100 µM
CNC(CC(C)C)C(=O)NC1C(=O)NC(CC(N)=O)C(=O)NC2C(=O)NC3C(=O)NC(C(=O)NC(C(=O)O)c4cc(O)cc(O)c4-c4cc3ccc4O)C(O)c3ccc(c(Cl)c3)Oc3cc2cc(c3OC2OC(CO)C(O)C(O)C2OC2CC(C)(NC(=O)CCCCCCCC[N+](C)(C)Cc3ccccc3)C(O)C(C)O2)Oc2ccc(cc2Cl)C1O (stereo not shown)	microbial growth, agar dilution		clinical isolate	64 µg/mL
CN(C)c1ccc2c(CC(=O)NCCCn3cc(CCCCC(=O)Oc4c(Cl)cc(Cl)cc4-c4[nH]c(Cl)c(Cl)c4Cl)nn3)cc(=O)oc2c1	microbial growth, broth dilution	NCTC8325	20 h	0.125 µg/mL
C=C(NC(=O)C(=C)NC(=O)c1csc(C2=NC3c4csc(n4)C4NC(=O)c5csc(n5)C(C(C)(O)C(C)O)NC(=O)C5CSC(=N5)C(=CC)NC(=O)C(C(C)O)NC(=O)c5csc(n5)C3(CC2)NC(=O)C(C)NC(=O)C(=C)NC(=O)C(=CC)NC(=O)C(C(C)CC)NC2C=Cc3c(C(C)O)cc(nc3C2O)C(=O)OC4C)n1)C(N)=O (stereo not shown)	broth microdilution	ATCC 10537 MRSA	18 h, 37 °C	0.11 µg/mL
CC(=O)NCc1cc(N(C)C)c2c(c1O)C(=O)C1=C(O)[C@]3(O)C(=O)C(C(N)=O)=C(O)[C@@H](N(C)C)[C@@H]3C[C@@H]1C2	microbial growth, broth dilution			2 µg/mL
O=C1c2ccccc2C(=O)c2c1ccc1c2C(C(=O)NCc2ccccc2)C(=O)C1c1ccccc1 (stereo not shown)	microbial growth			64 µg/mL
CN(C)c1cc(CNCc2ccccc2)c(O)c2c1C[C@H]1C[C@H]3[C@H](N(C)C)C(O)=C(C(N)=O)C(=O)[C@@]3(O)C(O)=C1C2=O	microbial growth, broth dilution			0.25 µg/mL
CCn1cc[n+](CC)[c]1[Au-][Cl]	broth dilution	MRSA DSM 11822	20 h, 37 °C	2.8 µM
CO[C@H]1[C@H](O)[C@@H](N)[C@@H](O[C@H]2[C@H](O[C@@H]3O[C@H](CO)[C@@H](O[C@H]4O[C@@H](CN)[C@@H](O)[C@H](O)[C@H]4N)[C@H]3O)[C@@H](O)[C@H](N)C[C@@H]2N)O[C@@H]1CO	broth microdilution	MRSA isolate AG 038		32 µg/mL

SMILES	test	system	conditions	MIC
CC(C)=CCc1cc([C@@H]2CC(=O)c3ccc(O)c(CC=C(C)C)c3O2)c(O)c(CC=C(C)C)c1O		ATCC 25923		128 µg/mL
Cc1cccc([N+](=O)[O-])c1NC(=O)CSc1nc2ccccc2c(=O)n1-c1ccc(S(N)(=O)=O)cc1		methicillin-resistant	24 h, 37 °C	10 µg/mL
CN1/C(=C/C=C/c2cc(-c3ccccc3)cc(-c3ccccc3)[o+]2)C(C)(C)c2ccccc21	microbial growth, broth dilution	MRSA		0.5 µg/mL
CC(C)C[C@H](NC(=O)[C@H](CC(N)=O)NC(=O)[C@H](CCCNC(=N)N)NC(=O)[C@@H](CC(C)C)NC(=O)[C@H](Cc1ccccc1)NC(=O)[C@H](CC(=O)O)NC(=O)[C@H](CCCCN)NC(=O)[C@@H](CC(C)C)NC(=O)[C@H](CCCNC(=N)N)NC(=O)[C@H](CCC(N)=O)NC(=O)[C@@H](NC(=O)[C@@H](CC(C)C)NC(=O)[C@H](CCCNC(=N)N)NC(=O)[C@H](CCCCN)NC(=O)[C@H](Cc1ccc(-c2ccccc2)cc1)NC(=O)CN)C(C)C)C(=O)N[C@H](C(N)=O)C(C)C	broth microdilution	USA300 LAC, MRSA		12.5 µM
CNC(CC(C)C)C(=O)NC1C(=O)NC(CC(N)=O)C(=O)NC2C(=O)NC3C(=O)NC(C(=O)NC(C(=O)O)c4cc(O)cc(O)c4-c4cc3ccc4O)C(O)c3ccc(c(Cl)c3)Oc3cc2cc(c3OC2OC(CO)C(O)C(O)C2OC2CC(C)(NC(=O)CCCC[n+]3ccccc3)C(O)C(C)O2)Oc2ccc(cc2Cl)C1O (stereo not shown)	microbial growth, agar dilution		clinical isolate	64 µg/mL
NC[C@@H]1O[C@H](O[C@H]2[C@@H](O)[C@H](O[C@@H]3[C@@H](O)[C@H](N)C[C@H](N)[C@H]3O[C@H]3O[C@H](CO)[C@@H](OCCO)[C@H](O)[C@H]3N)O[C@@H]2CO)[C@H](N)[C@@H](O)[C@@H]1O	broth microdilution	MRSA isolate AG 038		32 µg/mL
CCCCN1C(=O)/C(=N\NC(=N)N)c2cc(C)ccc21	microbial growth, broth dilution		18 h	96 µg/mL
CC[C@H](C)[C@@H]1NC(=O)[C@@H]([C@@H](C)O)NC(=O)CNC(=O)[C@H](CC(=O)O)NC(=O)CNC(=O)[C@H](CC(=O)O)NC(=O)CNC(=O)[C@H]2CCCCN2C(=O)[C@@H](NC(=O)[C@H](CC(=O)O)NC(=O)/C=C/CCCCCCCCCC(C)C)CNC(=O)[C@@H]2CCCN2C1=O		MRSA USA300	together with: Ca2+ 1 mM	8 µg/mL
CO[C@H]1CN(c2ccc(C(N)=O)nn2)CC[C@H]1NC(=O)c1[nH]c(C)c(Cl)c1Cl		ATCC 29213		0.25 µg/mL
CN(C)c1cc(CNC2CCCC2)c(O)c2c1C[C@H]1C[C@H]3[C@H](N(C)C)C(O)=C(C(N)=O)C(=O)[C@@]3(O)C(O)=C1C2=O		MRSA 5, Tet M ribosome protection		0.5 µg/mL
CC(C)C1=CC2=CCC3C(C)(C(=O)OCCC[N+](C)(C)C)CCCC3(C)C2CC1 (stereo not shown)	microbial growth, broth dilution	ATCC29213	16 h	7.8 µg/mL
CN(C)c1cc(CN)c(O)c2c1C[C@H]1C[C@H]3[C@H](N(C)C)C(O)=C(C(N)=O)C(=O)[C@@]3(O)C(O)=C1C2=O		RN4250, Tet K efflux		16 µg/mL
C[n+]1ccc(/C=C2\Sc3ccccc3N2CCCN2CCCC2)c2ccccc21	microbial growth, broth dilution	ATCCBAA41 MRSA		4 µg/mL
COCCOC(=O)NCc1cc(N(C)C)c2c(c1O)C(=O)C1=C(O)[C@]3(O)C(=O)C(C(N)=O)=C(O)[C@@H](N(C)C)[C@@H]3C[C@@H]1C2		RN4250, Tet K efflux		16 µg/mL
C/C(=N\Nc1nc(C)cs1)c1ccc2c(c1)sc1nc(=O)c(C#N)cn12	broth microdilution			< 39 µg/mL

Some of these lines once more:
SMILES	test	system	conditions	MIC
CCCCN1C(=O)/C(=N\NC(=N)N)c2cc(C)ccc21	microbial growth, broth dilution		18 h	96 µg/mL
CC[C@H](C)[C@@H]1NC(=O)[C@@H]([C@@H](C)O)NC(=O)CNC(=O)[C@H](CC(=O)O)NC(=O)CNC(=O)[C@H](CC(=O)O)NC(=O)CNC(=O)[C@H]2CCCCN2C(=O)[C@@H](NC(=O)[C@H](CC(=O)O)NC(=O)/C=C/CCCCCCCCCC(C)C)CNC(=O)[C@@H]2CCCN2C1=O		MRSA USA300	together with: Ca2+ 1 mM	8 µg/mL
CO[C@H]1CN(c2ccc(C(N)=O)nn2)CC[C@H]1NC(=O)c1[nH]c(C)c(Cl)c1Cl		ATCC 29213		0.25 µg/mL
CN(C)c1cc(CNC2CCCC2)c(O)c2c1C[C@H]1C[C@H]3[C@H](N(C)C)C(O)=C(C(N)=O)C(=O)[C@@]3(O)C(O)=C1C2=O		MRSA 5, Tet M ribosome protection		0.5 µg/mL
CC(C)C1=CC2=CCC3C(C)(C(=O)OCCC[N+](C)(C)C)CCCC3(C)C2CC1 (stereo not shown)	microbial growth, broth dilution	ATCC29213	16 h	7.8 µg/mL
